Published values from different studies.
Numbers after ± are the reported error. In brackets after ≈: the same amount, converted by molar mass. Ends that are not written are not given here.
Organism: Escherichia coli

GIGKFLHSAKKFGKAFVGEIMNS-NH2 (C-amide) — MIC50 (bacterial growth, broth microdilution; peptide, NCTC 9001, Mueller-Hinton broth; overnight, 37 °C): 6.86 ± 1.58 µg/mL
CCC(=O)O[C@H]1[C@H](C)O[C@@H](O[C@H]2[C@H](N(C)C)[C@@H](O)[C@H](O[C@H]3[C@@H](CC=O)C[C@@H](C)[C@@H](O)/C=C/C=C/C[C@@H](C)OC(=O)C[C@@H](O)[C@@H]3OC)O[C@@H]2C)C[C@@]1(C)O — inhibition zone diameter (growth; SG 458, DMSO–methanol; 50 µL of 2.0 mM, 24 h, 37 °C): 19 mm
GSSFLSPEHQRVQQRKESKKPPAKLQPR (ghrelin; ends and bridges not checked; sequence looked up) — bactericidal concentration (bacterial killing; peptide, ATCC 27325, sodium phosphate buffer; 2 h, pH 6.8, 37 °C; reference: untreated): ≥ 12.5 µg/mL
TRSSRAGLQWPVGRVHRLLRK-NH2 (C-amide) — MIC50 (bacterial growth, broth microdilution; peptide, TOP10, Mueller-Hinton broth; overnight, 37 °C): > 25.9 µg/mL
CC1(C)S[C@@H]2[C@H](NC(=O)[C@H](N)c3ccc(O)cc3)C(=O)N2[C@H]1C(=O)O — susceptible isolates (hospitalized pneumonia patients, clinical isolates; Fine score 70 or more): 50%
C[C@@H](O)[C@H]1C(=O)N2C(C(=O)O)=C(S[C@@H]3CN[C@H](C(=O)N(C)C)C3)[C@H](C)[C@H]12 — FIC index (checkerboard; ATCC 25922; added: magainin II): 0.312
GWGSFFKKAAHVGKHVGKAALTHYL-NH2 (C-amide) — MIC50 (bacterial growth, broth microdilution; peptide, NCTC 9001, Mueller-Hinton broth; overnight, 37 °C): 0.66 ± 0.22 µg/mL
COc1cc(C=Nc2ccc([N+](=O)[O-])cc2)ccc1O — inhibition zone (microbial growth, disc diffusion; 2000 µg/mL, 24 h): ≤ 16.6 mm
KFFKFFKFFK (peptide-PNA conjugate) — reduction in viable count (peptide, UPEC 536; 1.25 µM, 60 to 120 min): 1 log cfu/mL
CC(C)C[C@H](NC(=O)CNC(=O)[C@H](C)NC(=O)[C@H](CCCNC(=N)N)NC(=O)[C@H](CO)NC(=O)[C@H](CO)NC(=O)[C@H](CCCNC(=N)N)NC(=O)[C@@H](N)[C@@H](C)O)C(=O)N[C@@H](CCC(N)=O)C(=O)N[C@@H](Cc1c[nH]c2ccccc12)C(=O)N1CCC[C@H]1C(=O)N[C@H](C(=O)NCC(=O)N[C@@H](CCCNC(=N)N)C(=O)N[C@H](C(=O)N[C@@H](Cc1c[nH]cn1)C(=O)N[C@@H](CCCNC(=N)N)C(=O)N[C@@H](CC(C)C)C(=O)N[C@@H](CC(C)C)C(=O)N[C@@H](CCCNC(=N)N)C(=O)N[C@@H](CCCCN)C(=O)O)C(C)C)C(C)C — fluorescence ratio (membrane permeabilization, propidium iodide uptake; 2 µM, 5 min, pH 7.4; reference: before addition): 1.29 ± 0.1
CC(C)(O/N=C(\C(=O)N[C@@H]1C(=O)N2C(C(=O)[O-])=C(C[n+]3ccccc3)CS[C@H]12)c1csc(N)n1)C(=O)O — FIC index (checkerboard; ATCC 25922; added: magainin II): 0.187
CC[C@H]1OC(=O)[C@H](C)[C@@H](O[C@H]2C[C@@](C)(OC)[C@@H](O)[C@H](C)O2)[C@H](C)[C@@H](O[C@@H]2O[C@H](C)C[C@H](N(C)C)[C@H]2O)[C@](C)(O)C[C@@H](C)CN(C)[C@H](C)[C@@H](O)[C@]1(C)O — susceptible isolates (hospitalized pneumonia patients, clinical isolates; Fine score 70 or more): 0%
CC[C@H]1OC(=O)[C@H](C)[C@@H](O[C@H]2C[C@@](C)(OC)[C@@H](O)[C@H](C)O2)[C@H](C)[C@@H](O[C@@H]2O[C@H](C)C[C@H](N(C)C)[C@H]2O)[C@](C)(O)C[C@@H](C)/C(=N\OCOCCOC)[C@H](C)[C@@H](O)[C@]1(C)O — IC50 (in vitro translation, SNAPf fluorescence; E. coli MRE600 70S ribosomes; 2 h, 37 °C): 27 ± 7 nM
CC[C@H](C)[C@H](NC(=O)CNC(=O)[C@H](CCC(=O)O)NC(=O)[C@H](CO)NC(=O)[C@@H](NC(=O)[C@H](CCCNC(=N)N)NC(=O)[C@H](CCCCN)NC(=O)[C@H](CCCCN)NC(=O)[C@H](C)NC(=O)[C@H](CO)NC(=O)[C@H](CC(N)=O)NC(=O)[C@H](CCC(=O)O)NC(=O)[C@H](CC(C)C)NC(=O)[C@H](CCCCN)NC(=O)[C@H](CCCCN)NC(=O)[C@H](C)NC(=O)[C@@H](NC(=O)[C@H](CCCCN)NC(=O)[C@H](CO)NC(=O)[C@H](CC(C)C)NC(=O)[C@H](Cc1c[nH]c2ccccc12)NC(=O)[C@@H](N)CO)[C@@H](C)O)[C@@H](C)CC)C(=O)N[C@@H](C)C(=O)N[C@H](C(=O)N[C@@H](C)C(=O)N[C@H](C(=O)N[C@@H](CCC(N)=O)C(=O)NCC(=O)NCC(=O)N1CCC[C@H]1C(=O)N[C@@H](CCCNC(=N)N)C(=O)O)[C@@H](C)CC)[C@@H](C)CC — MIC50 (broth microdilution; 18 h, 30 clinical isolates): 0.5 µg/mL (≈ 0.15 µM)
COc1cc(C=Nc2ccccc2Br)ccc1O — inhibition zone (microbial growth, disc diffusion; 2000 µg/mL, 24 h): ≤ 16.6 mm
CO/N=C(\C(=O)N[C@@H]1C(=O)N2C(C(=O)O)=C(CSc3nc(=O)c(=O)[nH]n3C)CS[C@H]12)c1csc(N)n1 — FIC index (checkerboard; ATCC 25922; added: magainin II): 0.25
CC1(C)S[C@@H]2[C@H](NC(=O)[C@H](N)c3ccc(O)cc3)C(=O)N2[C@H]1C(=O)O — inhibition zone (microbial growth, disc diffusion; ATCC25922; 500 µg/mL): 12.9 mm

For quick reference, copied from above:
GWGSFFKKAAHVGKHVGKAALTHYL-NH2 (C-amide) — MIC50 (bacterial growth, broth microdilution; peptide, NCTC 9001, Mueller-Hinton broth; overnight, 37 °C): 0.66 ± 0.22 µg/mL
